# Results gathered from unrelated publications.
# Each line is one published result; not all experiments were run side by side.
# Organism: Escherichia coli
Compound,test,test system,conditions,MIC
CC(C)C[C@@H](NC(=O)[C@H](NC(=O)[C@@H](CCCCN)NC(=O)[C@@H](CCCCN)NC(=O)[C@@H](CC(C)C)NC(=O)[C@@H](Cc1c[nH]c2ccccc12)NC(=O)[C@@H](CCCCN)NC(=O)[C@@H](CC(C)C)NC(=O)[C@@H](CC(C)C)NC(=O)[C@@H](CCCCN)NC(=O)[C@@H](CCCCN)NC(=O)[C@H](N)C(C)C)C(C)C)C(N)=O,,,"24 h, 37 °C, Mueller-Hinton broth, KCl 4.5 mM",8 µM
N=C(N)NCCC[C@@H]1NC(=O)[C@H](CCCNC(=N)N)NC(=O)[C@@H](CCCNC(=N)N)NC(=O)[C@H](C(c2ccccc2)c2ccccc2)NC(=O)[C@H](C(c2ccccc2)c2ccccc2)NC(=O)[C@H](C(c2ccccc2)c2ccccc2)NC(=O)[C@H](CCCNC(=N)N)NC1=O,,"ATCC BAA-2452, NDM-1 CRE",,8 µg/mL
CCCCCCCC(=O)N[C@@H](CCN)C(=O)N[C@H](C(=O)N[C@@H](CCN)C(=O)N[C@H]1CCNC(=O)[C@H]([C@@H](C)O)NC(=O)[C@H](CCN)NC(=O)[C@H](CCN)NC(=O)[C@H](CCc2ccccc2)NC(=O)[C@@H](CC(C)C)NC(=O)[C@H](CCN)NC1=O)[C@@H](C)O,broth microdilution,ATCC 25922,,< 0.125 µg/mL
CC[C@H](C)[C@H](NC(=O)[C@H](CCCNC(=N)N)NC(=O)[C@H](CC(=O)O)NC(=O)[C@H](CCCNC(=N)N)NC(=O)[C@H](CC(C)C)NC(=O)[C@H](CC(N)=O)NC(=O)[C@H](CCCNC(=N)N)NC(=O)[C@@H](N)Cc1ccccc1)C(=O)N[C@@H](CCCCN)C(=O)N[C@@H](CC(N)=O)C(=O)N[C@@H](CCCCN)C(=O)N[C@@H](Cc1ccccc1)C(=O)N[C@@H](CCC(=O)O)C(=O)N[C@@H](CC(N)=O)C(=O)N[C@@H](C)C(=O)N[C@@H](CC(C)C)C(=O)N[C@@H](CCCCN)C(=O)N[C@@H](CC(N)=O)C(=O)N[C@H](C(=O)N[C@H](C(=O)N[C@@H](CC(N)=O)C(=O)N[C@@H](CCCCN)C(=O)N[C@@H](CC(C)C)C(=O)N[C@@H](Cc1ccccc1)C(=O)N1CCC[C@H]1C(=O)O)[C@@H](C)CC)C(C)C,broth microdilution,ATCC 25922,,10.4 µM
C=CCO/N=C(\C(=O)N[C@@H]1C(=O)N(OS(=O)(=O)O)C1(C)C)c1csc(N)n1,agar dilution,"CDC 1001728, NDM-1",,4 µg/mL
CC[C@H](C)[C@H](NC(=O)[C@@H](CCCNC(=N)N)NC(=O)[C@H](CCCNC(=N)N)NC(=O)[C@@H]1CCCN1C(=O)[C@@H]1CCCN1C(=O)[C@H](Cc1ccccc1)NC(=O)[C@@H]1CCCN1C(=O)[C@H](CCCNC(=N)N)NC(=O)[C@@H]1CCCN1C(=O)[C@H](CC(C)C)NC(=O)[C@H](Cc1ccc(O)cc1)NC(=O)[C@@H]1CCCN1C(=O)[C@@H]1CCCN1C(=O)[C@H](CCCCN)NC(=O)[C@H](CC(=O)O)NC(=O)[C@@H](N)C(C)C)C(=O)N[C@@H](Cc1ccc(O)cc1)C(=O)N[C@@H](CC(N)=O)C(=O)N[C@H](CCCNC(=N)N)C(N)=O,broth microdilution,ATCC 25922,"18 h, 37 °C, 25% MHB2",16 µg/mL
CC[C@H](C)[C@H](NC(=O)[C@@H](NC(=O)[C@H](CCCCN)NC(=O)[C@H](CCCCN)NC(=O)[C@@H](NC(=O)[C@H](Cc1c[nH]c2ccccc12)NC(=O)[C@H](CCCCN)NC(=O)[C@@H](NC(=O)[C@H](CC(C)C)NC(=O)[C@H](CCCCN)NC(=O)[C@H](CCCCN)NC(=O)[C@@H](N)C(C)C)[C@@H](C)CC)[C@@H](C)CC)C(C)C)C(N)=O,,,"24 h, 37 °C, Mueller-Hinton broth, MgCl2 1 mM",64 µM
CC[C@H](C)[C@H](NC(=O)[C@@H](CCCNC(=N)N)NC(=O)[C@H](CCCNC(=N)N)NC(=O)[C@H](CCCNC(=N)N)NC(=O)[C@H](Cc1c[nH]c2ccccc12)NC(=O)[C@H](CCCNC(=N)N)NC(=O)[C@@H]1CCCN1C(=O)[C@H](CCCNC(=N)N)NC(=O)[C@@H]1CCCN1C(=O)[C@H](CC(C)C)NC(=O)[C@H](Cc1ccc(O)cc1)NC(=O)[C@@H]1CCCN1C(=O)[C@@H]1CCCN1C(=O)[C@H](CCCCN)NC(=O)[C@H](CC(=O)O)NC(=O)[C@@H](N)C(C)C)C(=O)N[C@@H](Cc1ccc(O)cc1)C(=O)N[C@@H](CC(N)=O)C(=O)N[C@H](CCCNC(=N)N)C(N)=O,broth microdilution,MC4100,"18 h, 37 °C, 25% MHB2",8 µg/mL
CC(C)C[C@@H](NC(=O)[C@@H](CCCNC(=N)N)NC(=O)[C@H](N)CCCNC(=N)N)C(=O)N[C@H](CC(C)C)C(=O)N[C@H](CCCNC(=N)N)C(=O)N[C@H](CCCCN)C(=O)N[C@H](CC(C)C)C(=O)N[C@H](CCCCN)C(=O)NCC(=O)N[C@H](CCCCN)C(=O)N[C@H](CCCCN)C(=O)N[C@H](CC(C)C)C(=O)N[C@H](Cc1ccc(O)cc1)C(=O)N[C@H](CC(C)C)C(=O)N[C@H](Cc1ccc(O)cc1)C(=O)N[C@H](Cc1ccccc1)C(=O)N[C@H](CCCCN)C(=O)N[C@H](CC(C)C)C(=O)N[C@H](CCC(N)=O)C(=O)N[C@H](CC(C)C)C(=O)N[C@H](CC(C)C)C(=O)N[C@H](CCCCN)C(=O)N[C@H](CCCCN)C(N)=O,broth microdilution,"KCTC 1682, Mueller-Hinton broth",added: NH4Cl 6 µM,8 µM
COc1ccc(CC2[NH2+]CCc3cc(OC)c(OC)cc32)cc1OC.[Cl][Fe-]([Cl])([Cl])[Cl] (stereo not shown),,,"24 h, 37 °C",> 1600 µM
CO[C@@H](C(N)=O)[C@H](NC(=O)c1ccc(NC(=O)[C@@H](N)Cc2ccc(O)cc2)cc1)C(=O)Nc1ccc(C(=O)Nc2ccc(C(=O)Nc3ccc(C(=O)O)c(O)c3OC(C)C)c(O)c2OC(C)C)cc1,,MerR family clone,"16 h, 37 °C",> 16 µg/mL
CCn1c(-c2ccc(OC)cc2)c(-c2ccc(OC)cc2)n(CC)c1=[Se],broth microdilution,carbapenem-resistant BAA-2140,24 h,> 40 µM
Cc1ccnc(-c2cc(C(=O)NCCCCCC(=O)N[C@@H](CCCNC(=N)N)C(=O)N[C@@H](Cc3c[nH]c4ccccc34)C(=O)N[C@@H](CCCNC(=N)N)C(=O)N[C@@H](Cc3c[nH]c4ccccc34)C(=O)N[C@@H](CCCNC(=N)N)C(=O)N[C@@H](Cc3c[nH]c4ccccc34)C(N)=O)ccn2)c1,,"ATCC BAA-196, resistant","18 h, 37 °C, dark",16 µM
CC[C@H](C)[C@H](NC(=O)[C@@H](CCCNC(=N)N)NC(=O)[C@H](CCCNC(=N)N)NC(=O)[C@@H]1CCCN1C(=O)[C@@H]1CCCN1C(=O)[C@H](CCCNC(=N)N)NC(=O)[C@H](Cc1c[nH]c2ccccc12)NC(=O)[C@H](CCCNC(=N)N)NC(=O)[C@@H]1CCCN1C(=O)[C@H](CC(C)C)NC(=O)[C@H](Cc1ccc(O)cc1)NC(=O)[C@@H]1CCCN1C(=O)[C@@H]1CCCN1C(=O)[C@H](CCCCN)NC(=O)[C@H](CC(=O)O)NC(=O)[C@@H](N)C(C)C)C(=O)N[C@@H](Cc1ccc(O)cc1)C(=O)N[C@@H](CC(N)=O)C(=O)N[C@H](CCCNC(=N)N)C(N)=O,broth microdilution,BW25113,"18 h, 37 °C, 25% MHB2",8 µg/mL
OB(O)c1cnn(-c2cc(Cl)ncn2)c1,bacterial growth,TEM-3 ESBL clinical isolate,without cefotaxime,1020 µg/mL
CC[C@H](C)[C@H](NC(=O)[C@@H](CCCNC(=N)N)NC(=O)[C@H](CCCNC(=N)N)NC(=O)[C@H](CC(N)=O)NC(=O)[C@H](Cc1c[nH]c2ccccc12)NC(=O)[C@H](CCCNC(=N)N)NC(=O)[C@@H]1CCCN1C(=O)[C@H](CCCNC(=N)N)NC(=O)[C@@H]1CCCN1C(=O)[C@H](CC(C)C)NC(=O)[C@H](Cc1ccc(O)cc1)NC(=O)[C@@H]1CCCN1C(=O)[C@@H]1CCCN1C(=O)[C@H](CCCCN)NC(=O)[C@H](CC(=O)O)NC(=O)[C@@H](N)C(C)C)C(=O)N[C@@H](Cc1ccc(O)cc1)C(=O)N[C@@H](CC(N)=O)C(=O)N[C@H](CCCNC(=N)N)C(N)=O,broth microdilution,ATCC 25922,"18 h, 37 °C, 25% MHB2",8 µg/mL
CC(C)[C@@H]1NC(=O)[C@@H](CCCNC(=N)N)NC(=O)[C@H]([C@@H](C)O)NC(=O)[C@@H](CCCCN)NC(=O)[C@H](Cc2ccccc2)NC(=O)[C@@H](Cc2ccccc2)NC1=O,,"AR0346, colistin-resistant",added: colistin,> 32 µg/mL
CC(C)[C@H](NC(=O)CNC(=O)CNC(=O)[C@H](Cc1ccc(O)cc1)NC(=O)[C@H](CS)NC(=O)[C@@H](NC(=O)[C@H](Cc1c[nH]c2ccccc12)NC(=O)[C@H](Cc1ccccc1)NC(=O)[C@H](CS)NC(=O)[C@H](Cc1c[nH]c2ccccc12)NC(=O)[C@@H](N)CCCNC(=N)N)C(C)C)C(=O)N[C@@H](CS)C(=O)N[C@@H](Cc1ccc(O)cc1)C(=O)N[C@@H](CCCNC(=N)N)C(=O)N[C@@H](CCCNC(=N)N)C(=O)N[C@@H](CS)C(=O)N[C@@H](CCCNC(=N)N)C(=O)O,broth microdilution,K88,,0.34 log10 µg/mL
CC[C@H](C)[C@H](NC(=O)[C@@H](CCCNC(=N)N)NC(=O)[C@H](CCCNC(=N)N)NC(=O)[C@@H]1CCCN1C(=O)[C@@H]1CCCN1C(=O)[C@H](CCCNC(=N)N)NC(=O)[C@@H]1CCCN1C(=O)[C@H](CCCNC(=N)N)NC(=O)[C@@H]1CCCN1C(=O)[C@@H](NC(=O)[C@H](Cc1ccc(O)cc1)NC(=O)[C@@H]1CCCN1C(=O)[C@@H]1CCCN1C(=O)[C@H](CCCCN)NC(=O)[C@H](CC(=O)O)NC(=O)[C@@H](N)C(C)C)C(C)(C)C)C(=O)N[C@@H](Cc1ccc(O)cc1)C(=O)N[C@@H](CC(N)=O)C(=O)N[C@H](CCCNC(=N)N)C(N)=O,broth microdilution,BW25113,"18 h, 37 °C, 25% MHB2",16 µg/mL

# Some of these lines once more:
Compound,test,test system,conditions,MIC
Cc1ccnc(-c2cc(C(=O)NCCCCCC(=O)N[C@@H](CCCNC(=N)N)C(=O)N[C@@H](Cc3c[nH]c4ccccc34)C(=O)N[C@@H](CCCNC(=N)N)C(=O)N[C@@H](Cc3c[nH]c4ccccc34)C(=O)N[C@@H](CCCNC(=N)N)C(=O)N[C@@H](Cc3c[nH]c4ccccc34)C(N)=O)ccn2)c1,,"ATCC BAA-196, resistant","18 h, 37 °C, dark",16 µM
CC[C@H](C)[C@H](NC(=O)[C@@H](CCCNC(=N)N)NC(=O)[C@H](CCCNC(=N)N)NC(=O)[C@@H]1CCCN1C(=O)[C@@H]1CCCN1C(=O)[C@H](CCCNC(=N)N)NC(=O)[C@H](Cc1c[nH]c2ccccc12)NC(=O)[C@H](CCCNC(=N)N)NC(=O)[C@@H]1CCCN1C(=O)[C@H](CC(C)C)NC(=O)[C@H](Cc1ccc(O)cc1)NC(=O)[C@@H]1CCCN1C(=O)[C@@H]1CCCN1C(=O)[C@H](CCCCN)NC(=O)[C@H](CC(=O)O)NC(=O)[C@@H](N)C(C)C)C(=O)N[C@@H](Cc1ccc(O)cc1)C(=O)N[C@@H](CC(N)=O)C(=O)N[C@H](CCCNC(=N)N)C(N)=O,broth microdilution,BW25113,"18 h, 37 °C, 25% MHB2",8 µg/mL
